Measured values of several laboratories.
Numbered parts are unrelated; each lists some results of a single study.

Study 1
Target: RNA binding protein fox-1 homolog 2, RRM domain, GST-SBP tag (RBFOX2, Homo sapiens, UniProt O43251-10, residues 100-194)
Method: RNA Bind-n-Seq
Form: RNA
Matrix: in vitro
Tested at: 365 nM
Notes: natural RNA segment, single round, ends assumed
Reference: no-protein control
Direction: higher = stronger binding
Endpoint: RBNS enrichment (R)
Target sequence (chain): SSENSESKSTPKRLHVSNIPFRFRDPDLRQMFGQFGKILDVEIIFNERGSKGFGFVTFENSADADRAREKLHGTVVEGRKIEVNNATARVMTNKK
GGGAGUUCUACAGUCCGACGAUCGGCCUUCCCCCACCACUGGGCAGAGGCUGGACAGCACGGACUUCUAGAGAGAGCCGCGUUGCCAGUUCCUCUCCCACUCGCUCGUCCUUAUCCACCACGCUAUUAUAGUUUGGAAUUCUCGGGUGCCAA: 0.363
GGGAGUUCUACAGUCCGACGAUCAUGCCCAGCAAUCACCCUCCUCACUUCCUUGUCUAGAUGUAGAGGUCAGGCUGCUGAACCAGCCAACACAUGGGCUACUGCUGGGAAGCCUGGGCUGUUUUUUUUCUUAAUGGAAUUCUCGGGUGCCAA: 0.3
GGGAGUUCUACAGUCCGACGAUCAAUCCUCAAAAGAACAAAAUGCUUAACUUUAUCUCUUAAUUUCUAAAGGUAAAUAACCUAGGUUCAGCUUUUGCUUAAACAUUAAAUAUCUUUUCCAUUUUUUAAUGUUUUGGAAUUCUCGGGUGCCAA: 0.882
GGGAGUUCUACAGUCCGACGAUCAAGCAGGAAAACCAAUCGUCUUCUUGACAGGGUGGCAUUUGGCCUUGAACAAAAUCAGGUCCCCUGGGGUGGAAGUCACAGCCAAGCGCCUUUUUAAGACUUGAGUGGUGUGGAAUUCUCGGGUGCCAA: 0.303

Study 2
Target: Histone acetyltransferase KAT6A, winged helix 1, GST fusion (KAT6A, Homo sapiens, UniProt Q92794, residues 1-85)
Method: protein binding microarray
Form: double-stranded DNA, one strand shown
Matrix: in vitro
Tested at: not given
Notes: 8-mer, flanks averaged, mean of 2 arrays, mostly near background
Reference: not given
Direction: higher = stronger binding
Endpoint: E-score
Target sequence (chain): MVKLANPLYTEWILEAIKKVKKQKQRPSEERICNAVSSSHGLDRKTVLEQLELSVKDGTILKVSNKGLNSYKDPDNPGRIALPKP
ATCCTTCG: -0.117
GTACGACA: -0.276
AGGAGGAG: -0.207
AAGTCCTG: -0.272

Study 3
Target: Interferon regulatory factor 5, full length, phosphomimetic (IRF5, Homo sapiens, UniProt Q13568-2, residues 1-514, S451D/S453D/S456D/S462D)
Method: protein-binding microarray
Form: double-stranded DNA, one strand shown
Matrix: in vitro
Tested at: 940 nM top
Notes: 60-bp whole probe
With: salmon DNA 0.4 mg/ml
Reference: random background probes
Direction: higher = stronger binding
Endpoint: fitted relative affinity
Shared flanks, not repeated: GCCTAGCAC … GTCTTGATTCGCTTGACGCTGCTG
CTTTCTTTATGCACTCTCTACGTGCTA: 1.39 z-score
ATAGGTCTCCTTATCCTTTAGTGCTAG: 0.502 z-score
TTAGGACCGGACTATCGGTTAGTGCTA: -0.305 z-score
TTAGAACTGGGGTTTCGATGAGTGCTA: 3.89 z-score
GACCGTATCGGGACTGGGGACGTGCTA: 0.966 z-score

Further values, each from its own experiment
PhoQ, residues 284 288 289 292 302 303 SACGEM  fold induction (PhoP, residues 12 14 15 18 19 SGWQI (Escherichia coli, UniProt P23836); Sort-seq, measured: YFP reporter; E. coli; PhoQ-PhoP variant library, with: 10 µM Mg2+; reference: high Mg2+ state, higher = stronger signaling): 1.37
